Literature values as cited in several papers.
Lines come from different studies, so protocols differ. ± gives the spread as reported.

| Structure (SMILES) | target | effect on | mode | method | tested at | notes | IC50 [nM] |
| --- | --- | --- | --- | --- | --- | --- | --- |
| CC(C)C[C@@H](CN[C@@H](CC(C)C)C(N)=O)NC(=O)[C@H](Cc1c[nH]cn1)NC(=O)CNC(=O)[C@@H](NC(=O)[C@H](C)NC(=O)[C@H](Cc1c[nH]c2ccccc12)NC(=O)[C@H](CCC(N)=O)NC(=O)[C@H](CC(N)=O)NC(=O)CNC(=O)[C@H](CC(C)C)NC(=O)[C@H](CCCNC(=N)N)NC(=O)[C@H](CCC(N)=O)NC(=O)[C@@H]1CCC(=O)N1)C(C)C | mouse GRP receptor | binding | – | – | – | literature species comparison | 65 ± 8 |
| CC(C)[C@@H]1NC(=O)[C@H](CCCCN)NC(=O)[C@@H](Cc2c[nH]c3ccccc23)NC(=O)[C@H](Cc2ccc(O)cc2)NC(=O)[C@@H](NC(=O)[C@H](N)Cc2ccc3ccccc3c2)CSSC[C@@H](C(=O)N[C@@H](Cc2ccc3ccccc3c2)C(N)=O)NC1=O | bombesin receptor BB1 | – | – | – | concentration not given | – | 605 |
| CN(C)c1ccc(NC(=O)CCCCCNC(=O)CS)cc1 | total HDAC | – | – | – | – | – | 600 |
| CC[C@H](C)[C@H](NC(=O)[C@@H](NC(=O)[C@@H](NC(=O)[C@H](CCCNC(=N)N)NC(=O)[C@@H](N)CCCCN)C(C)C)C(C)C)C(=O)N[C@@H](CC(N)=O)C(=O)N[C@@H](CCCCN)C(=O)N[C@@H](CC(=O)O)C(=O)N[C@H](C(=O)O)[C@@H](C)O | Mamu-B*03 MHC class I | peptide binding | competitor | competitive binding | – | – | 1060 |
| CCn1c(CC(=O)N2CCN(c3ccccc3)CC2)nc2sc3c(c2c1=O)CCCC3 | BChE | – | – | – | – | – | 59 |
| CC[C@H](C)[C@H](N)C(=O)N[C@@H](CCCNC(=N)N)C(=O)N[C@@H](CC(C)C)C(=O)N[C@@H](CCCNC(=N)N)C(=O)N1CCC[C@H]1C(=O)NCC(=O)NCC(=O)N[C@@H](CCCCN)C(=O)N[C@@H](CCCCN)C(=O)O | Mamu-B*03 MHC class I | peptide binding | competitor | competitive binding | – | – | 9360 |
| COc1cc(/C=C/C(=O)NCC(C)(C)CNC(=O)/C=C/c2ccc(OC(C)=O)c(OC)c2)ccc1OC(C)=O | AChE | – | – | – | – | – | 350 |
| Clc1ccc(-c2nnc(-c3cncc(-c4ccccc4)c3)o2)cc1 | butyrylcholinesterase | – | inhibitor | – | – | – | 4.77 |
| CC[C@H](C)[C@H](NC(=O)[C@H](Cc1c[nH]c2ccccc12)NC(=O)[C@H](CCCNC(=N)N)NC(=O)[C@@H](N)CCCNC(=N)N)C(=O)N[C@@H](CCC(N)=O)C(=O)N[C@@H](CC(C)C)C(=O)NCC(=O)N[C@@H](CC(C)C)C(=O)N[C@@H](CCC(N)=O)C(=O)N[C@@H](CCCCN)C(=O)O | Mamu-B*08 MHC class I | peptide binding | competitor | competitive binding | – | – | 14 |
| C=C1C(=O)N[C@@H](C)C(=O)N(C)[C@@H](C)C(=O)N[C@@H]([C@H](OC(=O)[C@@H](NC(=O)CC)[C@H](O)C(C)C)C(C)C)C(=O)N(C)[C@@H]([C@@H](C)OC)C(=O)O[C@H](C(C)C)[C@H](NC(C)=O)C(=O)O[C@H](Cc2ccccc2)C(=O)N1C | Gαq/11 | – | inhibitor | – | – | – | 32 |
| C[C@H]1CC[C@@H]2[C@@H](C)[C@H]3[C@H](C[C@H]4[C@@H]5CC=C6C[C@@H](O)CC[C@]6(C)[C@H]5CC[C@]34C)N2C1 | butyrylcholinesterase | enzyme activity | inhibitor | – | – | – | 16.8 |
| CO[C@H]1CC=C2CCN3CCC4=C(CC(=O)CC4)[C@]23C1 | α3β4 nicotinic acetylcholine receptor | – | inhibitor | – | – | – | 23000 |
| O=c1cc(Cc2ccc(-c3ccccc3)cc2)c2cccnc2n1O | HIV-1 integrase | strand transfer | inhibitor | – | – | – | 2400 |
| CC(C)C[C@H](NC(=O)OCc1ccccc1)C(=O)N[C@H](C=O)C[C@@H]1CCNC1=O | cathepsin B | – | inhibitor | – | – | – | 9 |
| CNC(=O)Oc1cccc(CN(C)CCCCCOC(=O)/C=C/c2ccc(O)c(OC)c2)c1 | AChE | – | – | – | – | – | 19.7 |
| O=C1[C@@H]2CCCN2[C@@H](c2ccc([N+](=O)[O-])cc2)N1c1ccc([N+](=O)[O-])cc1 | dengue virus 2 NS2B-NS3 protease | – | inhibitor | – | – | – | 1200 ± 400 |
| CC1=NOC(=O)/C1=C\c1ccc(-c2ccccc2)o1 | IspE (Escherichia coli) | – | – | – | – | – | 5500 |
| COc1cc(/C=C/C(=O)N2CCC(Cc3ccccc3)CC2)ccc1OCCCCN(N1CCCc2ccccc21)N1CCCc2ccccc21 | MAO-B | – | – | – | – | – | 8600 |
| C(#Cc1cncc(OC[C@@H]2CCN2)c1)c1ccccc1 | nicotinic acetylcholine receptor α4β2 | – | – | – | – | – | 0.049 |
| CC(C)C[C@H](NC(=O)[C@H](C)NC(=O)[C@H](CCC(=O)O)NC(=O)[C@H](Cc1c[nH]c2ccccc12)NC(=O)CNC(=O)[C@H](CCCNC(=N)N)NC(=O)[C@H](CCCNC(=N)N)NC(=O)CN)C(=O)N[C@@H](CCCCN)C(=O)N[C@@H](Cc1ccc(O)cc1)C(=O)O | Mamu-B*03 MHC class I | peptide binding | competitor | competitive binding | – | – | 6500 |
| CCn1c2ccccc2c2cc(-c3c(C(=O)OCCOC)c(C)nc4c3C(=O)CCC4)ccc21 | butyrylcholinesterase, horse | enzyme activity | inhibitor | – | – | – | 9720 |
| CSCC[C@H](N)C(=O)N1CCC[C@H]1C(=O)Nc1ccc([N+](=O)[O-])cc1 | dengue virus 2 NS2B-NS3 protease | – | inhibitor | – | – | – | 1200 ± 400 |
| O=C[C@H](C[C@@H]1CCNC1=O)NC(=O)[C@H](Cc1ccccc1)NC(=O)/C=C/c1cccc(Br)c1 | enterovirus 71 3C protease | enzyme activity | inhibitor | – | – | – | < 500 |
| Nc1ncnc2c1ncn2C1OC(CSCCCCNCc2cccc(-c3ccc(Cl)cc3)c2)C(O)C1O (stereo not drawn) | PRMT7 | – | inhibitor | – | – | – | < 2.5 |

Excerpt of the above:
| Structure (SMILES) | target | effect on | mode | method | tested at | notes | IC50 [nM] |
| --- | --- | --- | --- | --- | --- | --- | --- |
| C=C1C(=O)N[C@@H](C)C(=O)N(C)[C@@H](C)C(=O)N[C@@H]([C@H](OC(=O)[C@@H](NC(=O)CC)[C@H](O)C(C)C)C(C)C)C(=O)N(C)[C@@H]([C@@H](C)OC)C(=O)O[C@H](C(C)C)[C@H](NC(C)=O)C(=O)O[C@H](Cc2ccccc2)C(=O)N1C | Gαq/11 | – | inhibitor | – | – | – | 32 |
| C[C@H]1CC[C@@H]2[C@@H](C)[C@H]3[C@H](C[C@H]4[C@@H]5CC=C6C[C@@H](O)CC[C@]6(C)[C@H]5CC[C@]34C)N2C1 | butyrylcholinesterase | enzyme activity | inhibitor | – | – | – | 16.8 |
| CO[C@H]1CC=C2CCN3CCC4=C(CC(=O)CC4)[C@]23C1 | α3β4 nicotinic acetylcholine receptor | – | inhibitor | – | – | – | 23000 |
| O=c1cc(Cc2ccc(-c3ccccc3)cc2)c2cccnc2n1O | HIV-1 integrase | strand transfer | inhibitor | – | – | – | 2400 |
